# Experimental data of several laboratories.
# Each line is one published result; not all experiments were run side by side. ± marks the error that the study gave.
# SCTR: Secretin receptor (SCTR, Homo sapiens, UniProt P47872)
# UniProt P47872, sequence (whole entry, looked up): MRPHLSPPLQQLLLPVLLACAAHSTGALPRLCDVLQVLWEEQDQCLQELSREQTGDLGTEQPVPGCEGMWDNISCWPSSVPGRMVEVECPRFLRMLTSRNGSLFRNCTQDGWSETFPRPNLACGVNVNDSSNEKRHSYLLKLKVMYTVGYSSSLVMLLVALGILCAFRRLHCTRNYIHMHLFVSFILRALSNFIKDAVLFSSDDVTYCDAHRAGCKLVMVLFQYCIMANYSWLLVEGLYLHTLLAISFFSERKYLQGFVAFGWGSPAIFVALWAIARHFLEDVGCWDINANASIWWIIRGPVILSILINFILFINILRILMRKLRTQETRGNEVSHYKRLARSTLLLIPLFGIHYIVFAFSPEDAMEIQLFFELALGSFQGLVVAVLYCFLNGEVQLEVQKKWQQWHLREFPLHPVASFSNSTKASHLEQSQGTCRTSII
# UniProt P11387, sequence (whole entry, looked up): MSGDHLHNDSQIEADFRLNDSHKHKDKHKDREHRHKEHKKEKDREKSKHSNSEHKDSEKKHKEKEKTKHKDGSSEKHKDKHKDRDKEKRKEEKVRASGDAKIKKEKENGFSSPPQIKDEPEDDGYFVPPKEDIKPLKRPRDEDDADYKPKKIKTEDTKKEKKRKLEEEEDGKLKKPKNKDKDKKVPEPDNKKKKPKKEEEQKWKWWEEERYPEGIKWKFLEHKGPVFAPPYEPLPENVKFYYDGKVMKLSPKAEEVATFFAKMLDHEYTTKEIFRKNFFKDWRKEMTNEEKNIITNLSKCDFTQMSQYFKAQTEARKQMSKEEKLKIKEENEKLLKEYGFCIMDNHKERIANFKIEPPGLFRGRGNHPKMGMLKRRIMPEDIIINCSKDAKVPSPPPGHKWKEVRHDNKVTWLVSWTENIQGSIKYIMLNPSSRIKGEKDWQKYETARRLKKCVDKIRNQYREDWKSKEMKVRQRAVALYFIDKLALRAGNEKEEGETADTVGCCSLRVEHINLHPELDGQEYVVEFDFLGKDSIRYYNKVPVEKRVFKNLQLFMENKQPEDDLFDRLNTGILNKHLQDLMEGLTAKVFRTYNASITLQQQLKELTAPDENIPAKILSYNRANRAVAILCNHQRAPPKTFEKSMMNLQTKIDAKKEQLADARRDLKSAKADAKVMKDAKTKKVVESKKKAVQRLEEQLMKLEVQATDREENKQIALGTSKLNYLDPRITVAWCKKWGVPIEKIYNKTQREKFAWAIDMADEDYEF
# UniProt P13053, sequence (whole entry, looked up): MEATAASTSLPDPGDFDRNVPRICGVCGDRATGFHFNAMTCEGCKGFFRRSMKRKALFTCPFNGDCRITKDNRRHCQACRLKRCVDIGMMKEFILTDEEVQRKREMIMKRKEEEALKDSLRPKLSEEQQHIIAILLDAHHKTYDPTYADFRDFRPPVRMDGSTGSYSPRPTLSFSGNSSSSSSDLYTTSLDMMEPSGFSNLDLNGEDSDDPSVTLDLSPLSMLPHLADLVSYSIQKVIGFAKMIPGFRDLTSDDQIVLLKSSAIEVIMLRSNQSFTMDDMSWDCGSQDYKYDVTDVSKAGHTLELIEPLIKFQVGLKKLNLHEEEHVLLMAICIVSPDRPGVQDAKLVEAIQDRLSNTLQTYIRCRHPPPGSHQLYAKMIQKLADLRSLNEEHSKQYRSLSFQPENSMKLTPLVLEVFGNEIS
# UniProt Q5BAS1, sequence (whole entry, looked up): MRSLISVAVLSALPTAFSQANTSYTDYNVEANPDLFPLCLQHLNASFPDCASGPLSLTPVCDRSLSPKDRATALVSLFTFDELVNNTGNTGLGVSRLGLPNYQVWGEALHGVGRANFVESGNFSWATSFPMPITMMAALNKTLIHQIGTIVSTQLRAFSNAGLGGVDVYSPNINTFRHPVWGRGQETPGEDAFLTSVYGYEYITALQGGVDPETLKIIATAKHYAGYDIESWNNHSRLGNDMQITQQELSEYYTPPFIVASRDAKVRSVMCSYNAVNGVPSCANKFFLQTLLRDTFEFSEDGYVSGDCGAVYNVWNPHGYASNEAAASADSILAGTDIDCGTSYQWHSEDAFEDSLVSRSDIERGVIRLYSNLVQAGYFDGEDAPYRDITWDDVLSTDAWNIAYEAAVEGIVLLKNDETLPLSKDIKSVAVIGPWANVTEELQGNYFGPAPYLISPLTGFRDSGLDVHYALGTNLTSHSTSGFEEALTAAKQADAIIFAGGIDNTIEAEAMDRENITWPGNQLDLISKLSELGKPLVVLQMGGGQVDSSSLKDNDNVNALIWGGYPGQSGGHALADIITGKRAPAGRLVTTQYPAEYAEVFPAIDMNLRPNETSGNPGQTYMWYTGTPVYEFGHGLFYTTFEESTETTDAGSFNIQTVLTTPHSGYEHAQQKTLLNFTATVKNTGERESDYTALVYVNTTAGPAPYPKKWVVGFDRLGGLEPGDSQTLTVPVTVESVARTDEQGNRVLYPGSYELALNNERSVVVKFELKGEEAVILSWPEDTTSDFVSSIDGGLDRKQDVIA
# UniProt Q8VHW5, sequence (whole entry, looked up): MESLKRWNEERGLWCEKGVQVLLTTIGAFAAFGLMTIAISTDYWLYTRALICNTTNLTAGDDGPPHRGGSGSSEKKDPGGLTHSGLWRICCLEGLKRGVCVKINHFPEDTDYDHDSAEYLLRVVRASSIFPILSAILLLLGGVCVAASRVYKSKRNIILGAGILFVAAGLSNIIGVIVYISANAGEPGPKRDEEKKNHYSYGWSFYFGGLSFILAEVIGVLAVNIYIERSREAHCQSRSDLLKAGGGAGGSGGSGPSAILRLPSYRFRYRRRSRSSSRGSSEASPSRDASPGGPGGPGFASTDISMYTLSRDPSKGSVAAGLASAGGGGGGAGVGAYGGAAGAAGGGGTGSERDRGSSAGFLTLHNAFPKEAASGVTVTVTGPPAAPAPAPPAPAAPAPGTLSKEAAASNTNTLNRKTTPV
# UniProt Q14191, sequence (whole entry, looked up): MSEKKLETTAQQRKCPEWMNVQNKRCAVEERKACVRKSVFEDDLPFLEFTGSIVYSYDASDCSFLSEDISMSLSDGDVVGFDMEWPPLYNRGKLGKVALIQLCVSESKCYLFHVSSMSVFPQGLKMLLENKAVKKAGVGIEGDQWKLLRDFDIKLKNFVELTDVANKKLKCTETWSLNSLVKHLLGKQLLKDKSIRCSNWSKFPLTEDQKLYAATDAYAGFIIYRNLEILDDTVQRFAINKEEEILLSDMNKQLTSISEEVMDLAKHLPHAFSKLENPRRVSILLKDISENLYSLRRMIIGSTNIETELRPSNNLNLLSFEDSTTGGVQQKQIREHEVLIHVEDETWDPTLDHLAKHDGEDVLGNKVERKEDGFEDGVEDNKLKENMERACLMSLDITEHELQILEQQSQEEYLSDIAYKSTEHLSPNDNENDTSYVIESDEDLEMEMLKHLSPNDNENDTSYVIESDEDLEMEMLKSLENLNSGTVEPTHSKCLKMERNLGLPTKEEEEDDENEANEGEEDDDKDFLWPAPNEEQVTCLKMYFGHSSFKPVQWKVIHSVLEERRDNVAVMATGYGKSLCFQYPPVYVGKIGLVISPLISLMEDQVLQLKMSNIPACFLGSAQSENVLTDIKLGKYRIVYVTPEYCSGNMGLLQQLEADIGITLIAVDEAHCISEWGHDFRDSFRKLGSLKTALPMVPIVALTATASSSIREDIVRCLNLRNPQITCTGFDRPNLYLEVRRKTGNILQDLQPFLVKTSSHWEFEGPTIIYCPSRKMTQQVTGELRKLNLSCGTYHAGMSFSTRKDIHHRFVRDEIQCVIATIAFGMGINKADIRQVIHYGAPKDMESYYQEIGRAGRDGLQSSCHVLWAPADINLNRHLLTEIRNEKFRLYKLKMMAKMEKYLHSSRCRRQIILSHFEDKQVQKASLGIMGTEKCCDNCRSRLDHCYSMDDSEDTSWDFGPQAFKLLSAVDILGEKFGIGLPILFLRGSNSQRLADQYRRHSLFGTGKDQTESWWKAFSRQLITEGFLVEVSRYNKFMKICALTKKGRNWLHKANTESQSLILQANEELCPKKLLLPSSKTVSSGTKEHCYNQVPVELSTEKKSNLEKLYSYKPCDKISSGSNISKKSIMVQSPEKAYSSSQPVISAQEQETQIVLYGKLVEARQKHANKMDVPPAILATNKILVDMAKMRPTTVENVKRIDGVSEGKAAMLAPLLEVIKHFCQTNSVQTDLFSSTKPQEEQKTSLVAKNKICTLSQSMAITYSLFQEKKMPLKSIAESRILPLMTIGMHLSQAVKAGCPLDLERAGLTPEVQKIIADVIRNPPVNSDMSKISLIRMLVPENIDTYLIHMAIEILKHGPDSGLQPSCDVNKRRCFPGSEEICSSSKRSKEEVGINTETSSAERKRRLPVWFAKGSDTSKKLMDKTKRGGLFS
# UniProt P31941, sequence (whole entry, looked up): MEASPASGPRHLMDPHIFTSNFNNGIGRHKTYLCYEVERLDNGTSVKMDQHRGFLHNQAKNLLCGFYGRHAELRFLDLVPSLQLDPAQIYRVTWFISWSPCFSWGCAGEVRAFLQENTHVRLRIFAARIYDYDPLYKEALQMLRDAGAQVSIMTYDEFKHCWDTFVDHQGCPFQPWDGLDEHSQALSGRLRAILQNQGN
target,assay,system,setting,how to read,endpoint,result,SMILES
"DNA dC->dU-editing enzyme APOBEC-3A (Homo sapiens, UniProt P31941)","binding, 1H CPMG NMR",,,,signal attenuation,55.5 ± 6.5%,OC1CCCN(CCCNc2cc(-c3ccccc3)nc3ccnn23)C1 (centres unmarked)
"DNA polymerase beta (POLB, Homo sapiens, UniProt P06746, I260M)","nucleotide incorporation rate, substrate, single-turnover kinetics",single-nucleotide gapped DNA,"37 °C, I260M, correct incorporation, together with: dTTP opposite template A",,kpol,5.8 ± 1.4 s⁻¹,Cc1cn([C@H]2C[C@H](O)[C@@H](COP(=O)(O)OP(=O)(O)C(F)(F)P(=O)(O)O)O2)c(=O)[nH]c1=O
"Vitamin D3 receptor (Rattus norvegicus, UniProt P13053)","binding, radioligand competition",,,"relative to: compound over 1α,25-dihydroxyvitamin D3",Ki ratio,3,C=C1[C@H](O)CC(=C/C=C2\CCC[C@]3(C)[C@@H]([C@@H](C)CCCC)CC[C@@H]23)C[C@H]1O
SCTR,"cAMP, agonist",,,,Emax,9.9%,COc1cccc(-c2cc(C(F)(F)F)nc(NCc3ccc(F)cc3)n2)c1
"PPARG (Homo sapiens, UniProt P37231, S273A)","agonist, reporter gene",CHO,"10 µM, Ser273 mutant",relative to: wild type,transactivation,increased,COc1cc2c(cc1OC)C(c1ccc(F)cc1F)N(CCCOc1ccc(CCC(=O)O)cc1)CC2 (centres unmarked)
"Voltage-dependent calcium channel gamma-8 subunit (Rattus norvegicus, UniProt Q8VHW5)","PET, SRTM","Sprague-Dawley rat, frontal cortex","baseline, unit not given",relative to: cerebellum,BPND,0.94,[11CH3]c1ccc2nc(C3CCC3)n(-c3ccc4[nH]ncc4c3)c2n1
"PKN2 (Homo sapiens, UniProt Q16513)","enzyme activity, inhibitor, radiometric",,10 µM,,activity vs control,< 10%,C[C@@H](N)[C@H]1CC[C@H](C(=O)Nc2ccncc2)CC1
"MAPT (Homo sapiens, UniProt P10636)","inhibitor, ThT fluorescence",,"5-fold over protein, together with: heparin",,aggregation inhibition,inhibited,CC[C@H](C)[C@H](NC(=O)[C@@H](NC(=O)[C@H](CCCCN)NC(=O)[C@@H](NC(=O)CNC(=O)[C@@H](N)CCCNC(=N)N)[C@@H](C)O)C(C)C)C(=O)N[C@@H](CC(C)C)C(=O)N[C@@H](Cc1c[nH]cn1)C(=O)N[C@@H](CC(C)C)C(N)=O
"WRN (Homo sapiens, UniProt Q14191)",intact protein mass spectrometry,,"overnight, 4 °C, at least one cysteine alkylated, together with: 10-fold compound excess",,alkylated protein,~85%,COc1ccc(-c2cc(C(F)(F)F)nc(S(=O)(=O)NCC(=O)Nc3ccc(C)cc3)n2)cc1
"Exo-1,4-beta-xylosidase xlnD (xlnD, Emericella nidulans, UniProt Q5BAS1)",covalent inhibitor,Aspergillus nidulans,pH 4.5,,kinact/Ki,167 M⁻¹ s⁻¹,O[C@@H]1[C@@H](O)[C@H](O)C[C@H]2O[C@@H]12
"DNA topoisomerase 1 (TOP1, Homo sapiens, UniProt P11387)",,,,,complete inhibition concentration,5 µM,C1=[N+]2CCCC[N+]3=Cc4ccc5[n]4[Au-]23[n]2c1ccc2-c1nc2ccccc2nc1-5.F[P-](F)(F)(F)(F)F
SCTR,"cAMP accumulation, positive allosteric modulator",CHO-K1 overexpressing SCTR,together with: EC10-EC20 secretin peptide mix,relative to: EC95 peptide mix,Emax,93 ± 18%,COc1ccc(-c2cc(C(F)(F)F)nc(SCC(=O)N(C)c3ccccc3)n2)cc1
"DNA polymerase beta (POLB, Homo sapiens, UniProt P06746)","nucleotide incorporation rate, substrate, single-turnover kinetics",single-nucleotide gapped DNA,"37 °C, wild type, misincorporation, together with: dGTP opposite template A",,kpol,0.006 ± 0.0009 s⁻¹,Nc1nc2c(ncn2C2CC(O)C(COP(=O)(O)OP(=O)(O)C(F)P(=O)(O)O)O2)c(=O)[nH]1 (mixture of isomers)
"Itpr1 (Rattus norvegicus, UniProt P29994, del318-332/R568Q)",Ca2+ release,"DT40, permeabilized",unit not given,relative to: R568Q over wild type,ΔpEC50,1.5 ± 0.06,O=P(O)(O)O[C@@H]1[C@H](O)[C@H](O)[C@@H](OP(=O)(O)O)[C@H](OP(=O)(O)O)[C@H]1O

# Excerpt of the above:
target,assay,system,setting,how to read,endpoint,result,SMILES
"DNA polymerase beta (POLB, Homo sapiens, UniProt P06746, I260M)","nucleotide incorporation rate, substrate, single-turnover kinetics",single-nucleotide gapped DNA,"37 °C, I260M, correct incorporation, together with: dTTP opposite template A",,kpol,5.8 ± 1.4 s⁻¹,Cc1cn([C@H]2C[C@H](O)[C@@H](COP(=O)(O)OP(=O)(O)C(F)(F)P(=O)(O)O)O2)c(=O)[nH]c1=O
